# Published values pooled from the literature.
# Numbered parts are unrelated; each lists some results of a single study. Changes are numbered by the printed parent chain.
# Sequence of UniProt Q93WC4 (whole entry, looked up): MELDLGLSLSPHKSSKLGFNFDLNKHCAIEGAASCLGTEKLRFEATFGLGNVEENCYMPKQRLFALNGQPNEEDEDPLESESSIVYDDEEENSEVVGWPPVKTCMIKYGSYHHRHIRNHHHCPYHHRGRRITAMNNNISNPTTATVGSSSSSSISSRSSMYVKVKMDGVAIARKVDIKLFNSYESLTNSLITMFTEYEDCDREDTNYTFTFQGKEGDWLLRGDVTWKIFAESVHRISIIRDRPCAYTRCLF
# Sequence of UniProt O23661 (whole entry, looked up): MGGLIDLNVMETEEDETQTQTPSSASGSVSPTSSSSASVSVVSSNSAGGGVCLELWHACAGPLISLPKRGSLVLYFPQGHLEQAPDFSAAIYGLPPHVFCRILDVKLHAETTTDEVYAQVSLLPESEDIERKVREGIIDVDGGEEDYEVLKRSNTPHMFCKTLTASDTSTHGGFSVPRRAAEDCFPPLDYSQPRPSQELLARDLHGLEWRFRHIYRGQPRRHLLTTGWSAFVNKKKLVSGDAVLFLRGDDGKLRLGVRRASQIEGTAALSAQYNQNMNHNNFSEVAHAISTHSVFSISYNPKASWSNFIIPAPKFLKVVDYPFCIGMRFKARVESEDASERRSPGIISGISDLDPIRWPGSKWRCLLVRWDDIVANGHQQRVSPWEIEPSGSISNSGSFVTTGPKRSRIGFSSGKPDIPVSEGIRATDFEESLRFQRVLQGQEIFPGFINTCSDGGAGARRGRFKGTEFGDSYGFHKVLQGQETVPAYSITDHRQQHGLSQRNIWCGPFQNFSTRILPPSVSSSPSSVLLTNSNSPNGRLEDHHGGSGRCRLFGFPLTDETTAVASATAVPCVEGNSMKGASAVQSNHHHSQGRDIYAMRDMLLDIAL
# Sequence of UniProt Q9M1R4 (whole entry, looked up): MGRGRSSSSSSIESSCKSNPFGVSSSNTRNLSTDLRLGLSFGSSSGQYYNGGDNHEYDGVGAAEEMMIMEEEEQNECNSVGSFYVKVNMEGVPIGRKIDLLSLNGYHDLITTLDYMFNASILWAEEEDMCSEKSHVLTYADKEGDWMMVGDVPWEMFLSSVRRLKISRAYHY
# Sequence of UniProt Q9FKM7 (whole entry, looked up): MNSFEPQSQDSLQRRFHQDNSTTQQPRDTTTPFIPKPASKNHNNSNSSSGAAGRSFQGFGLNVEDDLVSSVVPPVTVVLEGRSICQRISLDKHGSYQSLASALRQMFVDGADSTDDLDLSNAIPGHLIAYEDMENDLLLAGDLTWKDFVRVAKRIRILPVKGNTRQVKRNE
# Sequence of UniProt Q8H174 (whole entry, looked up): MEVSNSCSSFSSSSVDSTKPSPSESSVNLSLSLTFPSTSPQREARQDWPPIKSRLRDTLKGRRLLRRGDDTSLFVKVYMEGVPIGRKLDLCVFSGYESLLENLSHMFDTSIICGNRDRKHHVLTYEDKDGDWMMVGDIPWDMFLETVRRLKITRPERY
# Sequence of UniProt Q84WU6 (whole entry, looked up): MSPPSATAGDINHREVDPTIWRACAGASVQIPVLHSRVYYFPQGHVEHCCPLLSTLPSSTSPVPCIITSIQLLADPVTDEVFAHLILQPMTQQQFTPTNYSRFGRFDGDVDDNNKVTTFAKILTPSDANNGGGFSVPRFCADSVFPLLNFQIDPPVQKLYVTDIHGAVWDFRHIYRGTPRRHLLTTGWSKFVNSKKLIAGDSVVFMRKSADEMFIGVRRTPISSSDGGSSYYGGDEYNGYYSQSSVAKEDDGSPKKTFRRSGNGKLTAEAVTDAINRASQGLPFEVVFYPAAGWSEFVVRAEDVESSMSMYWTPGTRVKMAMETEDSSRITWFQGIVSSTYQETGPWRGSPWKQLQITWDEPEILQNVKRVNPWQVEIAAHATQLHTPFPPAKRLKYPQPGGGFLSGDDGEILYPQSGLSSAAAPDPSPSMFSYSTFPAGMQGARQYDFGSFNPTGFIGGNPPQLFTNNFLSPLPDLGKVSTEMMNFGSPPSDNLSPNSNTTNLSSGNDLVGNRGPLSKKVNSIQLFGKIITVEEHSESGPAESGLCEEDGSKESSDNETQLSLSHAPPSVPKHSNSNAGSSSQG

# Sample 1 — target: vanadate, free oxyanion; method: microfluidic competitive inhibition; matrix: in vitro, cell-free expressed; tested at: not given; direction: lower = stronger binding
# Notes: derived from inhibition constants, unchanged parent 676 nM
# Parent: PafA, mature enzyme, eGFP fusion (Elizabethkingia meningoseptica, UniProt Q9KJX5); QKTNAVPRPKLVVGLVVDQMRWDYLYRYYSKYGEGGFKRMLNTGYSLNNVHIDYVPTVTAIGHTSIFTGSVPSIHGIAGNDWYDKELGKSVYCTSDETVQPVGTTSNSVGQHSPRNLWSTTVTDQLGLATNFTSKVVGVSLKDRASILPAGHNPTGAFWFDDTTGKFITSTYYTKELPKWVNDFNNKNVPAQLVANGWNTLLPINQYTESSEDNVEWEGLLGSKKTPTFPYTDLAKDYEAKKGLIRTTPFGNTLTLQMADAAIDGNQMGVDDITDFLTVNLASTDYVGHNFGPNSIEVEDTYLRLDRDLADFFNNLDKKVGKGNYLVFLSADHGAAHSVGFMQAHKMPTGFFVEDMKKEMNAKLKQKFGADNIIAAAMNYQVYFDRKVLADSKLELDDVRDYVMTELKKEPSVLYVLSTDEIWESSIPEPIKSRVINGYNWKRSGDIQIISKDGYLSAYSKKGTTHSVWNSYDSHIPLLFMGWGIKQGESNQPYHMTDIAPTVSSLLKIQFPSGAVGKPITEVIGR
Substitution,oxyanion analog dissociation constant
N379V,1.05 µM
Q492V,628 nM
V339A,884 nM
D391G,673 nM
W118G,723 nM
K357G,733 nM
F67G,359 nM
T502V,1.71 µM
P154V,777 nM
Y302V,2.23 µM
W22G,1.1 µM
P293V,693 nM
V58G,3.13 µM
A310G,674 nM
F384G,486 nM
M404G,697 nM
N315G,618 nM
D233G,617 nM
I450V,783 nM
F351V,789 nM
V416A,649 nM
T228V,363 nM
A331V,2.11 µM
K319G,816 nM
H112V,1.13 µM

# Sample 2 — method: RNA Bind-n-Seq; molecule type: RNA; matrix: in vitro; tested at: 90 pmol; notes: 4-mer, random 30-nt RNA, single round; relative to: input library; direction: higher = stronger binding
# Target: ATP-dependent RNA helicase DDX3X, helicase core (DDX3X, Homo sapiens, UniProt O00571, residues 132-607)
# Sequence of UniProt O00571 (132-607, looked up): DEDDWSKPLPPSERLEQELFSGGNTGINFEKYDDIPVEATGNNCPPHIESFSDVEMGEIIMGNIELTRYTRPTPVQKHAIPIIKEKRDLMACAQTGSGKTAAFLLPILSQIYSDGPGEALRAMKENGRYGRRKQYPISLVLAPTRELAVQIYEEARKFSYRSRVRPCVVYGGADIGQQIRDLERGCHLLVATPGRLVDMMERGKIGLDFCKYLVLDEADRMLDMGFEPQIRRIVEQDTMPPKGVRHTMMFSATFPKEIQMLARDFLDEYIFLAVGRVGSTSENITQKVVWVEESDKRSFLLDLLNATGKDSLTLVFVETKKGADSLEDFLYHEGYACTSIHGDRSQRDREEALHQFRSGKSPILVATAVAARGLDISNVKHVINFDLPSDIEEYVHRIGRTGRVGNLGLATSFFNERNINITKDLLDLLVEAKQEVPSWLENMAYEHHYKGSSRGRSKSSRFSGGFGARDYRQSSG
# Added: 3 µM iPr-DMDA-PatA, 2 mM ADP, 2 mM phosphate
Sequence,4-mer enrichment [fold]
CUGG,0.72
GUGA,1.06
CCAU,0.986
UGAU,1.04
CGCC,0.862
GGUG,0.862
GACC,1.1
CAAA,1.31

# Sample 3 — cell line: HEK-293T/ACE2; tested at: concentration not given; time: 16 (unit not given); relative to: vehicle
SMILES,viability [%]
CCOC(=O)O[C@]1(C(=O)OCCl)CC[C@H]2[C@@H]3CCC4=CC(=O)C=C[C@]4(C)[C@H]3[C@@H](O)C[C@@]21C,104
NS(=O)(=O)Cc1noc2ccccc12,98.8
CC#CCn1c(N2CCC[C@@H](N)C2)nc2c1c(=O)n(Cc1nc(C)c3ccccc3n1)c(=O)n2C,104
COc1ccc2c(c1)c(CC(=O)O)c(C)n2C(=O)c1ccc(Cl)cc1,100

# Sample 4 — Molecule: B1 (IAA28); method: two-hybrid; direction: higher = firmer interaction
# B1: IAA28 (Arabidopsis thaliana, UniProt Q9XFM0); chain MEEEKRLELRLAPPCHQFTSNNNINGSKQKSSTKETSFLSNNRVEVAPVVGWPPVRSSRRNLTAQLKEEMKKKESDEEKELYVKINMEGVPIGRKVNLSAYNNYQQLSHAVDQLFSKKDSWDLNRQYTLVYEDTEGDKVLVGDVPWEMFVSTVKRLHVLKTSHAFSLSPRKHGKE
partner,notes,relative to,positive tests
"ARF17 (Arabidopsis thaliana, UniProt Q84WU6)",weak activation fusion,out of 3 tests,0
"IAA29 (Arabidopsis thaliana, UniProt Q93WC4)",,out of 3 tests,1
"IAA31 (Arabidopsis thaliana, UniProt Q8H174)",,out of 2 tests,2
"IAA33 (Arabidopsis thaliana, UniProt Q9FKM7)",,out of 4 tests,2
"IAA30 (Arabidopsis thaliana, UniProt Q9M1R4)",weak activation fusion,out of 4 tests,2
"ETT (Arabidopsis thaliana, UniProt O23661)",,out of 4 tests,0

# Sample 5 — effect on: ligand displacement; tested at: 10 µM
# Target: 5-hydroxytryptamine receptor 2C (HTR2C, Homo sapiens, UniProt P28335)
# Sequence of UniProt P28335 (whole entry, looked up): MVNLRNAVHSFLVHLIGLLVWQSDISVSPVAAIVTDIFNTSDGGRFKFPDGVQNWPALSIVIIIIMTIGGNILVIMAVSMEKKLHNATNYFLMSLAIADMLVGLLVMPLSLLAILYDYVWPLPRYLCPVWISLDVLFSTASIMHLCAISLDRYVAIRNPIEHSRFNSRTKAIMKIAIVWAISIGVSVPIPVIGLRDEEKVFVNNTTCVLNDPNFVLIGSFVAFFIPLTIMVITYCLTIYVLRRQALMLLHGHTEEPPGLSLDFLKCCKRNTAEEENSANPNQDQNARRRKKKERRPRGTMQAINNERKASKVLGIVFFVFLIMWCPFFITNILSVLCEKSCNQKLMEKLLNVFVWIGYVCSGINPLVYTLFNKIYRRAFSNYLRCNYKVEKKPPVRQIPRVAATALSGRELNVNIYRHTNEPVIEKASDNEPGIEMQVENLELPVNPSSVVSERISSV
SMILES,inhibition
C[C@H](c1ccc(F)cc1)N(Cc1ccc(Cl)c(C(=O)O)c1)C(=O)c1cnc2ccccc2c1,-7.78%
CC[C@H](CC(=O)O)n1c(=O)c2ncccc2n(Cc2cn(C)c3cc(C)cc(C)c23)c1=O,1.02%
CC(=O)Nc1nc(CN2CCC[C@H](Cc3cc(C)nc(C)c3)C2)cs1,16.3%
COc1cccc(NC(=O)c2nc3scc(CN(C)Cc4ccccc4)c3c(=O)[nH]2)c1,13.5%

# Sample 6 — method: RNAcompete; molecule type: RNA; matrix: in vitro; tested at: 20 nM; notes: 7-mer, probes averaged, single round; relative to: mean of 7-mers; direction: higher = stronger binding
# Target: PABPC1L2, full length, GST fusion (mouse, UniProt A0ABA7IW68)
# Residues (chain): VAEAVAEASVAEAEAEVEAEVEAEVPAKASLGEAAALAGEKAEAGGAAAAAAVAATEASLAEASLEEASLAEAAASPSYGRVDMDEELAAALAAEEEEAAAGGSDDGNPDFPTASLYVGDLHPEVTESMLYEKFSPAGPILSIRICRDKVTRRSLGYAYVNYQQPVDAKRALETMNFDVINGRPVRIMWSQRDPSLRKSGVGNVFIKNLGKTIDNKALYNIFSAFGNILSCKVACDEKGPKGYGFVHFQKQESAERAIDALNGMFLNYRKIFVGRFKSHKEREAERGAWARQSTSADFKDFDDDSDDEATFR
Sequence,7-mer Z-score
AGCAUGC,-0.0373
ACCUUUA,-0.0681
ACCUACC,-0.248
GGACAGU,0.0551
CAGCCUU,-0.298
ACUUUUG,-0.3
GUCAAUG,-0.313
UAGUUCC,-0.255

# A few entries again (sample 6):
Sequence,7-mer Z-score
GGACAGU,0.0551
ACUUUUG,-0.3
AGCAUGC,-0.0373
ACCUACC,-0.248
ACCUUUA,-0.0681
